Measured values pooled from the literature.
Each numbered part is a random draw from the data of one study; scales do not carry over between parts. Values joined by “and” are separate records of one study, mostly repeats; a detail may differ.
UniProt P05164, sequence (whole entry, looked up): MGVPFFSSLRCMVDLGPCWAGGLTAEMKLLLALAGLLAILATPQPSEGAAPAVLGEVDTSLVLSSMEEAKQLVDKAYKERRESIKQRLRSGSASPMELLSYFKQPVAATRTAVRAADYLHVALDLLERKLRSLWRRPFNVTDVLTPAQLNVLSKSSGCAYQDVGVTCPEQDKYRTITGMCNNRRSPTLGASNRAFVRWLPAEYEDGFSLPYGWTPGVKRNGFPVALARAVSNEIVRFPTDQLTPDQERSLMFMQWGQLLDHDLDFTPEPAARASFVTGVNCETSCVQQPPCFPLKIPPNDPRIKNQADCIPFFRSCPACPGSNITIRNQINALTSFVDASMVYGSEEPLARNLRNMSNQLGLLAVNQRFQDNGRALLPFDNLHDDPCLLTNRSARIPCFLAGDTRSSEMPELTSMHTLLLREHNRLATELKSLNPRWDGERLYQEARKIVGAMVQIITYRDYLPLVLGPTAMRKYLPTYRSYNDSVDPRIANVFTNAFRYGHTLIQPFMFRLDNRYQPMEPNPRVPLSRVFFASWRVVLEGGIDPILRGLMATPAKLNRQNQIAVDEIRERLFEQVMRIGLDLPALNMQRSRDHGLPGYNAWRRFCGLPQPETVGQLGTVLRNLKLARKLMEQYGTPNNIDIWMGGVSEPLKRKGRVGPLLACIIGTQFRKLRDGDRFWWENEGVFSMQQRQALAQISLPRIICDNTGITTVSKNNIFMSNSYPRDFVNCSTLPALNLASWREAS
UniProt Q9Y4B6, sequence (whole entry, looked up): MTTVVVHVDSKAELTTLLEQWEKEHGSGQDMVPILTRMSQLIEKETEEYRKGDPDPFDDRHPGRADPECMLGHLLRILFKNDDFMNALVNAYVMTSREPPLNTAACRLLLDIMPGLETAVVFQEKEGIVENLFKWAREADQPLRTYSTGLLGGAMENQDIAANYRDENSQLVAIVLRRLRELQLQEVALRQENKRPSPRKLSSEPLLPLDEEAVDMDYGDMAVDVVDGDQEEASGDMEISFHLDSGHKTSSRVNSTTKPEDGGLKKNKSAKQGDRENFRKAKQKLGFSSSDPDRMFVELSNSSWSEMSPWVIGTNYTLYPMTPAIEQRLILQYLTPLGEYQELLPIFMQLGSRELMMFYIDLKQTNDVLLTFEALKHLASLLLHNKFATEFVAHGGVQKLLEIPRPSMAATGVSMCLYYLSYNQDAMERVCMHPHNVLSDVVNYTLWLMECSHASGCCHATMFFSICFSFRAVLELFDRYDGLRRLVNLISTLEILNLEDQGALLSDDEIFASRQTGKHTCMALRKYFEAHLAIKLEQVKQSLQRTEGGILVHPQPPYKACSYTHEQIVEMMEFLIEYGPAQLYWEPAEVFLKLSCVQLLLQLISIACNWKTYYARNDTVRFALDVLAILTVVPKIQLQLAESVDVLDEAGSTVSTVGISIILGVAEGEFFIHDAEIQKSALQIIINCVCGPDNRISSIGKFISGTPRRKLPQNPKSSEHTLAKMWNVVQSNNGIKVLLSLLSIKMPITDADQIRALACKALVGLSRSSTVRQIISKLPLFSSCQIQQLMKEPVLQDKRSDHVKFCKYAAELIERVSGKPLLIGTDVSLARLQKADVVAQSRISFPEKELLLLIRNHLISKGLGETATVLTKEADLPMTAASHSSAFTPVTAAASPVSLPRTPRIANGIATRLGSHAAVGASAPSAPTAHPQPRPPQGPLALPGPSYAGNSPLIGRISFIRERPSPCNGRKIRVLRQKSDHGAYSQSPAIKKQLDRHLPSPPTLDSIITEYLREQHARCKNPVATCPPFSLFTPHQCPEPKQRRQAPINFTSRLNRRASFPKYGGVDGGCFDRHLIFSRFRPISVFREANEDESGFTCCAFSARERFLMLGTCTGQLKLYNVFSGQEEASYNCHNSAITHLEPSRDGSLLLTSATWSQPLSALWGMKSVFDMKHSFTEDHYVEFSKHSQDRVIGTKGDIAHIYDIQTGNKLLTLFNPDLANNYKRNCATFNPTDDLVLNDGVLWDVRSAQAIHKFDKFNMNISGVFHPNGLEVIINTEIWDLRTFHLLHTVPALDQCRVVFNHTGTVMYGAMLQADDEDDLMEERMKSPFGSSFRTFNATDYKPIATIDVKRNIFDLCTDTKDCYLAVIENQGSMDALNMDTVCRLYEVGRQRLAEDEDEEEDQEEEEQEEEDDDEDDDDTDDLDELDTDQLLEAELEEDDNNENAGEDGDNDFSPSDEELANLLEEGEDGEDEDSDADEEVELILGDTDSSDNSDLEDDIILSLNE

Study 1
SMILES: C[C@@H]1CN(c2ccc(-c3cc(C(=O)NCCOCCOCCOCCOCCNC(=O)/C=C/c4[nH]cc(C(=O)N[C@@H](CC(N)=O)c5ccc(F)c(Cl)c5)c4-c4ccc(Cl)cc4F)ccc3F)cc2NC(=O)c2c[nH]c(=O)cc2C(F)(F)F)C[C@H](C)N1C
Observed: thermal unfolding
Technique: differential scanning fluorimetry
Tested at: 5.5 µM
Reading: higher = more unfolded
Quantity: SYPRO Orange fluorescence
WDR5: WD repeat-containing protein 5 (WDR5, Homo sapiens, UniProt P61964)
DCAF1 (Homo sapiens, UniProt Q9Y4B6); 80.41 °C: 44800 a.u.
WDR5; 72.01 °C: 19500 a.u.
WDR5; 51.6 °C: 16800 a.u.
WDR5; 69.61 °C: 15700 a.u.
WDR5; 79.21 °C: 38100 a.u.

Other studies, line by line
PKMYT1: Membrane-associated tyrosine- and threonine-specific cdc2-inhibitory kinase (PKMYT1, Homo sapiens, UniProt Q99640)
UniProt Q99640, sequence (whole entry, looked up): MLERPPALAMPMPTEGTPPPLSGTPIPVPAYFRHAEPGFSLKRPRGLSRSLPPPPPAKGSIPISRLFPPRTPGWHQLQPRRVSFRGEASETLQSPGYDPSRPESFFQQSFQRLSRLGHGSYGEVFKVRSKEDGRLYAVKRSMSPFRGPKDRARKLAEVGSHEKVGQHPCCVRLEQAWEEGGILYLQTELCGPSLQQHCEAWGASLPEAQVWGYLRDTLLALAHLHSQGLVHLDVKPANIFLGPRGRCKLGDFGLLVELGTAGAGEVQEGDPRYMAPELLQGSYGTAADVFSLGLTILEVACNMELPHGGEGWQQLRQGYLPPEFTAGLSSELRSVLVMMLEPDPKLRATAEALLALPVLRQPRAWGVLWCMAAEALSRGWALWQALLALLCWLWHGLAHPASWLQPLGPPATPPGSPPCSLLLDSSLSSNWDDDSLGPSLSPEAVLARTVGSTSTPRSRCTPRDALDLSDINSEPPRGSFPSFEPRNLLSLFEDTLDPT
Cc1ccc(O)c(C)c1-c1cnc2[nH]c(-c3cnc(N4CCC(CN5CCN(c6cc7c(cc6F)n(C6CCC(=O)NC6=O)c(=O)n7C)CC5)CC4)nc3)cc2c1C#N (stereo not shown) — phospho-CDK1 (Thr14) level (HCC1569; CDK1 Thr14 phosphorylation, in-cell western; 37.04 nM; lower = stronger inhibition): 17.7 a.u. and 12.2 a.u.
NC/C(=C\F)COc1cc(Cn2c(=S)[nH]c(=O)c3[nH]ccc32)ccc1Cl — inhibition (Myeloperoxidase (MPO, Homo sapiens, UniProt P05164); enzyme activity; 0.0412 µM): 88.3% and 89.9%
Cc1ccc(O)c(C)c1-c1cnc2[nH]c(-c3cnc(N4CCC(CN5CCN(c6ccc7c(c6)C(=O)N(C6CCC(=O)NC6=O)C7=O)CC5)CC4)nc3)cc2c1C#N (stereo not shown) — remaining protein level (PKMYT1; immunoblotting; HCC1569; 1 µM, 4 h): 20.9%
Cc1nc(C)c(C=[N+]([O-])C(C)(C)C)nc1C — stride length (footprint test; MPTP-induced Parkinson's disease mouse model; 30 mg/kg): 6.76 cm and 7 cm and 6.91 cm and 6.12 cm and 6.97 cm and 5.53 cm and 6.51 cm and 5.59 cm
Cc1ncc(-c2cc3c(C#N)c(-c4c(C)ccc(O)c4C)cnc3[nH]2)cn1 — inhibition (PKMYT1; 0.04115 µM): 99.7%

A few entries again (other studies, line by line):
NC/C(=C\F)COc1cc(Cn2c(=S)[nH]c(=O)c3[nH]ccc32)ccc1Cl — inhibition (Myeloperoxidase (MPO, Homo sapiens, UniProt P05164); enzyme activity; 0.0412 µM): 88.3% and 89.9%
